Assay results of several laboratories.
A part holds a random share of what one study measured. Changes are numbered by the printed parent chain.

Series 1 — method: aptamer microarray, sandwich; molecule type: DNA with 2'F-ANA; medium: in vitro; tested at: 200 nM; together with: Cy3 exosite-II aptamer, 400 nM; direction: higher = stronger binding; strand: GGTTGGTGTGGTTGG
Target: Prothrombin, mature alpha-thrombin (F2, Homo sapiens, UniProt P00734)
Notes: whole 15-mer aptamer, many near background
| Modification | mean fluorescence intensity |
| --- | --- |
| 2'F-ANA at 1 5 7 8 10 11 13 14 15 | 52.8 a.u. |
| 2'F-ANA at 1 3 5 11 13 15 | 86.4 a.u. |
| 2'F-ANA at 2 6 7 11 13 14 | 101 a.u. |
| 2'F-ANA at 2 3 4 6 13 15 | 378 a.u. |
| 2'F-ANA at 4 6 8 10 11 12 13 | 110 a.u. |
| 2'F-ANA at 2 3 5 6 12 14 | 53.4 a.u. |
| 2'F-ANA at 2 5 8 9 11 12 13 14 15 | 46.5 a.u. |
| 2'F-ANA at 1 2 5 6 11 15 | 53.5 a.u. |
| 2'F-ANA at 2 5 10 11 12 13 | 47.8 a.u. |
| 2'F-ANA at 3 4 6 7 8 9 11 12 | 822 a.u. |
| 2'F-ANA at 8 9 12 14 15 | 231 a.u. |
| 2'F-ANA at 1 2 6 7 9 12 13 14 15 | 60.9 a.u. |
| 2'F-ANA at 1 2 4 6 8 9 10 14 | 42.4 a.u. |
| 2'F-ANA at 3 4 8 12 | 1320 a.u. |

Series 2 — method: protein binding microarray; molecule type: double-stranded DNA, one strand shown; medium: in vitro; tested at: not given; reference: not given; direction: higher = stronger binding
Target: Histone acetyltransferase KAT6A, both winged helices, GST fusion (KAT6A, Homo sapiens, UniProt Q92794, residues 1-181)
Notes: 8-mer, flanks averaged, mean of 2 arrays, mostly near background
Construct (chain): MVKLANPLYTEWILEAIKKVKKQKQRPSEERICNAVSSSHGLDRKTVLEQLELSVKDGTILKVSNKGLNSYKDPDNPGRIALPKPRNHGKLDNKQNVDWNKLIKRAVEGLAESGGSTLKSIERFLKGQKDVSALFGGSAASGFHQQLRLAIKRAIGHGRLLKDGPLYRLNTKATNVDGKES
| Strand | E-score |
| --- | --- |
| AGTGCCGA | 0.202 |
| CACCTATA | -0.0577 |
| CAGCATAA | -0.147 |
| AACAAGAA | -0.156 |
| TGTCAGAA | -0.136 |
| GAATTTGC | -0.0247 |
| AGATCCGA | -0.012 |
| GTACTTGA | -0.0324 |
| TCCGCAAA | 0.147 |
| GCGGTGAA | 0.194 |
| CACGGGAA | 0.237 |
| CGTTCCAC | 0.198 |
| CCCCCTGC | -0.0787 |
| GTGTCAAC | -0.00326 |
| CGAAAAAG | 0.127 |
| AAACGAAT | -0.184 |
| GAAAGCAA | -0.0301 |
| GAAACCCC | 0.0502 |
| CGTCCCAC | 0.0417 |
| AAAGACAC | -0.00411 |
| GTACTGGA | -0.0824 |
| CCCGGGTA | 0.222 |
| ATACTCCC | -0.0518 |
| GTTCAGGA | -0.19 |
| ATCAATAA | -0.0888 |

Series 3 — method: RNA Bind-n-Seq; molecule type: RNA; medium: in vitro; tested at: 20 nM; notes: 6-mer, flanks averaged, single round; together with: 150 mM KCl; reference: input library; direction: higher = stronger binding
Target: TAR DNA-binding protein 43, full length, His tag (TARDBP, Homo sapiens, UniProt Q13148, residues 1-414)
| Strand | 6-mer enrichment (R) |
| --- | --- |
| CAAUCG | 0.637 |
| CAGCAA | 0.71 |
| GGGACG | 4.69 |
| UCGACC | 0.622 |
| ACUUGC | 0.628 |
| UUGUGU | 1.04 |
| CUGACA | 0.671 |
| UAGGUG | 1.38 |
| CGACUA | 0.618 |
| CAAUGG | 1 |
| CUAUCU | 0.544 |
| CCUGGA | 0.805 |
| GUCCAA | 0.699 |
| GCCGUC | 0.831 |
| UUCGAG | 0.79 |
| UUUCUA | 0.579 |
| UACACC | 0.68 |
| UAGCUA | 0.616 |

Series 4 — method: protein-binding microarray; molecule type: double-stranded DNA, one strand shown; medium: in vitro; tested at: 0.8 µM; notes: whole 60-bp probe, no competitor; direction: higher = stronger binding; all sequences stand within: … GTCTTGATTCGCTTGACGCTGCTG
Target: Centromere-binding protein 1, full length, N-terminal tag (CBF1, Saccharomyces cerevisiae, UniProt P17106, residues 1-351)
UniProt P17106, sequence (whole entry, looked up): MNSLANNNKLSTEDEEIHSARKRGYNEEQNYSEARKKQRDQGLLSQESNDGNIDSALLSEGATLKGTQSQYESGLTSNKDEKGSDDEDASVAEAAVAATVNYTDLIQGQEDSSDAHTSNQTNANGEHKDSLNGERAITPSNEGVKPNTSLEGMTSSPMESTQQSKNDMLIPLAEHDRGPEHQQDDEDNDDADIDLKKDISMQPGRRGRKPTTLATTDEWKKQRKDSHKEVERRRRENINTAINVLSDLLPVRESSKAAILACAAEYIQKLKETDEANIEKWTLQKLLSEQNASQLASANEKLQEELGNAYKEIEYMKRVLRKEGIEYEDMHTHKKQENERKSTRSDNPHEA
| Strand | fluorescence intensity [a.u.] |
| --- | --- |
| TGTACGAAGCTATACTTCGTGGTTATAGTAGTTAGG | 500 |
| CCTAACTACTATAATCACAACATATAGCTTCGTACA | 549 |
| CTAGTGTAAAAAGATCACATAAAGATTGAAAAATTC | 550 |
| CTATTCCAATGGGATTGCGTGATTATGTTTCGTTTC | 596 |
| CTATACAAAATGGGTCAACTGATCATAACTATTTTC | 651 |
| GAACATGGCAAATATATGATCACGTGCGATTGTTAG | 20100 |
| GAAATCACGCCACATCACGTGCACATTACTAGTTAG | 12200 |
| GAAGGTTGTTTTACGAACATGTGATTCGGAAATTAG | 6390 |
| GAATGTCGATTGATAAACGTGATTTTGATGGCCTAG | 964 |
| CTACCAATAGAGCCGCACATGTAATTACTGGTTTTC | 528 |
| CTAGGTTCTTTTTCCCACGTATCGGTCCCTGAGTTC | 527 |
| GAAGAAGTAAGTAGTCACGCTTATTCTGACGCTTAG | 886 |
| CTACTTGGCATTCATCACCCGGTGATGCTGCGCTTC | 473 |
| CTAGTATTGACTAACTTCATGACACAACCACTGTTC | 538 |
| TGTACGAAGCTATAAAACGTGATTATAGTAGTTAGG | 1540 |
| CCTAACTACTATATTCGCGTGGAATAGCTTCGTACA | 505 |
| CTATTCAAGAAGCACCACGACAGACCAGGTTTGTTC | 508 |
| GAAGATCTTTAAAAGGTGATGAAAGATGCACCATAG | 542 |
| CTAACCATTGTTCATCACGATCATGAAACTCGCTTC | 618 |
| CTACCACTCTTTCTCCACGTGGCTTTGCTTTCCTTC | 2480 |
| CTAGGCGCCGTGCACCACGTCAATTTGACAGAGTTC | 489 |
| GAACAAAAATAGTGCCACGTCGGTACGGTCGGGTAG | 578 |

Series 5 — method: protein-binding microarray; molecule type: double-stranded DNA, one strand shown; medium: in vitro; tested at: 2540 nM top; notes: 60-bp whole probe; together with: salmon DNA 0.4 mg/ml; reference: random background probes; direction: higher = stronger binding; all sequences stand within: GCCTAGCAC … GTCTTGATTCGCTTGACGCTGCTG
Target: Interferon regulatory factor 3, full length, phosphomimetic (IRF3, Homo sapiens, UniProt Q14653, residues 1-427, S386D/S396D/S398D/S402D/T404D/S405D)
UniProt Q14653, sequence (whole entry, unmodified, looked up): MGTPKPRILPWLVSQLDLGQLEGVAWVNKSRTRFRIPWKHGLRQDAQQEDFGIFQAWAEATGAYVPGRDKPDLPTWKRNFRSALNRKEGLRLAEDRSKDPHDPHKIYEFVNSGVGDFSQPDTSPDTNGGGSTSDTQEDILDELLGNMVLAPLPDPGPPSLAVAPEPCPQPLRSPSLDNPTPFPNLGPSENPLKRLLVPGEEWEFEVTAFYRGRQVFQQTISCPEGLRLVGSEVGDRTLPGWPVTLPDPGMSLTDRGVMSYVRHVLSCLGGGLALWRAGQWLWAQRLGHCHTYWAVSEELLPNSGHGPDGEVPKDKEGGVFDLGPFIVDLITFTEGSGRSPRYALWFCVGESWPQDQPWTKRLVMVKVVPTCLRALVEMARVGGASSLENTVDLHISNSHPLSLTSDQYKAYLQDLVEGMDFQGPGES
| Strand | fitted relative affinity |
| --- | --- |
| CTACTTCTCTTTTTGCTTTCGTGCTAG | 3.13 z-score |
| TTAGATATTAGTATCGATTAGTGCTAG | 0.993 z-score |
| GACGGTATCCTGATCCTGACGTGCTAG | 1.71 z-score |
| CTTAGAATAATTTTTTAGCTTGTGCTA | -0.242 z-score |
| TCAGGTTTCGACTATCGGTTAGTGCTA | 2.68 z-score |
| TCAATTCTCTGCTTGGGACTGTGCTAG | 0.575 z-score |
| TTAGAACTGGTGACTGGATTAGTGCTA | -0.6 z-score |
| TTGGGTCTCGGTTTCGGTTAGTGCTAG | 4.77 z-score |
| TCATTTTGCTTTCTTTAACTGTGCTAG | 2.85 z-score |
| TTAGGTATCGACTATCGGCTAGTGCTA | 0.267 z-score |
| TCAACACTAATTTTTACACTGTGCTAG | 0.121 z-score |
| TCATATATAATATATATTACTGTGCTA | 0.673 z-score |
| TTAGGACGGGGTATCGGTTAGTGCTAG | 0.293 z-score |
| TTAAATCTCAGTCTCGATTAGTGCTAG | 0.635 z-score |
| TTAGATATCGGGCTTCGATTAGTGCTA | -0.276 z-score |
| AATCAACTTTTTTTAATTGAGTGCTAG | 0.598 z-score |
| TCAATTTCCATTATTGCACTGTGCTAG | 3.66 z-score |
| TTAGGACTGGACTATGGGTTAGTGCTA | -0.599 z-score |

Series 6 — target: CCND1, cyclin fold, Cln2 fusion (human); method: yeast growth competition, sequencing; medium: yeast; notes: strong parent motif; reference: not given; direction: higher = stronger binding
Starting sequence: CDKN1A docking peptide (human); SKACRRLFGPVDS
| Change | normalised enrichment score |
| --- | --- |
| SKACRRLFGPCDS [V11C] | 3.42 |
| SKACRRLFGPGDS [V11G] | 3.63 |
| SKACRREFGPVDS [L7E] | -0.139 |
| SKACNRLFGPVDS [R5N] | 0.233 |
| SKSCRRLFGPVDS [A3S] | 0.346 |
| SLACRRLFGPVDS [K2L] | 1.29 |
| SKACQRLFGPVDS [R5Q] | 0.205 |
| SKACRRLFGPVLS [D12L] | 1.31 |
| SKACLRLFGPVDS [R5L] | 0.707 |
| SKACRRLEGPVDS [F8E] | -0.568 |
| SKAIRRLFGPVDS [C4I] | 1.89 |
| SYACRRLFGPVDS [K2Y] | 1.54 |
| SKAVRRLFGPVDS [C4V] | 1.57 |
| SKACRRLFGPVES [D12E] | 2.79 |
| SKFCRRLFGPVDS [A3F] | 0.459 |
| SKACRRLTGPVDS [F8T] | -0.459 |
| SKAGRRLFGPVDS [C4G] | 0.169 |
| SIACRRLFGPVDS [K2I] | 1.42 |
| SKRCRRLFGPVDS [A3R] | -0.337 |
| SKACPRLFGPVDS [R5P] | 0.439 |
| SKICRRLFGPVDS [A3I] | 0.92 |

Repeated from above (series 6):
| Change | normalised enrichment score |
| --- | --- |
| SKACRRLFGPGDS [V11G] | 3.63 |
| SKACPRLFGPVDS [R5P] | 0.439 |
| SKACRRLEGPVDS [F8E] | -0.568 |
| SKICRRLFGPVDS [A3I] | 0.92 |
| SIACRRLFGPVDS [K2I] | 1.42 |
| SKRCRRLFGPVDS [A3R] | -0.337 |
| SLACRRLFGPVDS [K2L] | 1.29 |
| SKACRRLFGPCDS [V11C] | 3.42 |
| SKACQRLFGPVDS [R5Q] | 0.205 |
| SKACNRLFGPVDS [R5N] | 0.233 |
| SKACRREFGPVDS [L7E] | -0.139 |
| SKAGRRLFGPVDS [C4G] | 0.169 |
